Measurements of several laboratories.
Compare with care: the assays were run in different laboratories. ± marks the error that the study gave.
Target: Broad substrate specificity ATP-binding cassette transporter ABCG2 (ABCG2, Homo sapiens, UniProt Q9UNQ0)
One construct used (Q9UNQ0 1-655): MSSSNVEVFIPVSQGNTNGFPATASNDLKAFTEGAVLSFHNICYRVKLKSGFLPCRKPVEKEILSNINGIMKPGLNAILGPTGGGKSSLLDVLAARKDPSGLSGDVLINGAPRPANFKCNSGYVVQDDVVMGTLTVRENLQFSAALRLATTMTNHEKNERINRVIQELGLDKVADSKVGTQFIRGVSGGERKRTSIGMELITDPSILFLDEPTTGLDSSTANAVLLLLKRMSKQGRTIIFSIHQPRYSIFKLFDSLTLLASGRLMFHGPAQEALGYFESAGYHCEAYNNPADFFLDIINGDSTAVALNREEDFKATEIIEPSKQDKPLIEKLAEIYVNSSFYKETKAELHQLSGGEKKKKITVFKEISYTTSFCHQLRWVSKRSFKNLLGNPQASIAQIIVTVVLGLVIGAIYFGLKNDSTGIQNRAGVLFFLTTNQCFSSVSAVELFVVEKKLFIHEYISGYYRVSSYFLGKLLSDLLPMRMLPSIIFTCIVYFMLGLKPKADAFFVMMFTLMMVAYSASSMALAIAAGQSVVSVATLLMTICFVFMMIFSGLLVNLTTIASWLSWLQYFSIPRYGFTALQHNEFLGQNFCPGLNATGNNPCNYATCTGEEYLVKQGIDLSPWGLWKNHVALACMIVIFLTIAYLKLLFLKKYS

SMILES	test	system	setting	how to read	endpoint	result
CC(=O)Nc1ccc(C)c(Nc2nccc(-c3cccnc3)n2)c1	–	MCF7-FLV1000, overexpressing	with: mitoxantrone 5 µM	–	IC20	8.34 µM
COc1cc(CCOC(C)=O)cc(-c2cc(CCOC(C)=O)cc(O)c2O)c1O	mitoxantrone transport, inhibitor	–	10 µM, 30 min, with: mitoxantrone 5 µM	baseline: Ko143 0.5 µM	inhibition	21.8 ± 12%
Cc1cc(NC(=O)c2ccc(C)c(Nc3nccc(-c4cccnc4)n3)c2)cc(-n2cnc(C)c2)c1	–	MCF7-FLV1000, overexpressing	with: mitoxantrone 5 µM	–	IC20	0.42 µM
O=C(/C=C/c1ccc(Br)cc1)c1ccc2c(c1)OCO2	mitoxantrone efflux, flow cytometry	HEK293 transfected with ABCG2	5 µM, 30 min, with: mitoxantrone	baseline: 5 µM GF120918 as 100%	inhibition	13.7 ± 7.5%
O=C(O)C1OC(Oc2cccc(-c3cc(=O)c4ccccc4o3)c2)C(O)C(O)C1O (stereo not shown)	efflux of glucuronide, substrate	HeLa-UGT1A9	–	–	Km	5.6 µM
COc1cc(OC)c(OC)cc1/C=C/C(=O)c1ccc2ccccc2c1	mitoxantrone efflux, flow cytometry	HEK293 transfected with ABCG2	5 µM, 30 min, with: mitoxantrone	baseline: 5 µM GF120918 as 100%	inhibition	96.9 ± 7.4%
O=C(O)C1OC(Oc2ccc3oc(-c4ccccc4)cc(=O)c3c2)C(O)C(O)C1O (stereo not shown)	glucuronide efflux, substrate	HeLa-UGT1A9	–	–	intrinsic clearance	5.6 µL/min/mg protein
O=C(/C=C/c1ccc(Cl)c(Cl)c1)c1ccc2ccccc2c1	mitoxantrone efflux, flow cytometry	HEK293 transfected with ABCG2	5 µM, 30 min, with: mitoxantrone	baseline: 5 µM GF120918 as 100%	inhibition	2 ± 1.4%
Cc1ccc(C(=O)Nc2cccc(C(F)(F)F)c2)cc1N	–	MCF7-FLV1000, overexpressing	with: mitoxantrone 5 µM	–	IC20	5.15 µM
O=C(O)C1OC(Oc2ccc3c(=O)cc(-c4ccccc4)oc3c2)C(O)C(O)C1O (stereo not shown)	substrate, glucuronide efflux	HeLa-UGT1A9 cells	–	–	log CLint	1.53

A few entries again:
SMILES	test	system	setting	how to read	endpoint	result
O=C(O)C1OC(Oc2cccc(-c3cc(=O)c4ccccc4o3)c2)C(O)C(O)C1O (stereo not shown)	efflux of glucuronide, substrate	HeLa-UGT1A9	–	–	Km	5.6 µM
